Results from different studies.
Each line is one published result; not all experiments were run side by side. ± marks the error that the study gave.

| Substance | test | system | setting | Tmax [h] |
| --- | --- | --- | --- | --- |
| CS(=O)(=O)n1cc2c(n1)CN([C@H]1CO[C@H](c3cc(F)ccc3F)[C@@H](N)C1)C2 | – | healthy male human, plasma | oral, 25 mg once weekly, day 1, fasted, median | 1 |
| O=C(Nc1c(Cl)cncc1Cl)c1ccc(OC(F)F)c(OCC2CC2)c1 | – | human adults, ≥18 years, plasma | topical, 0.3% cream once daily, day 15 | 11.3 |
| Platinum | ICP-MS, item: total platinum | human, plasma | cisplatin, cycle 1 day 1, chemotherapy alone, median | 2 |
| CCOc1ccc(Cc2cc([C@]34OC[C@](CO)(O3)[C@@H](O)[C@H](O)[C@H]4O)ccc2Cl)cc1 | – | human, fed, plasma | oral, dose not given, range of medians, monotherapy and fixed-dose combinations | 2 to 2.5 |
| CCOc1ccc(Cc2cc([C@]34OC[C@](CO)(O3)[C@@H](O)[C@H](O)[C@H]4O)ccc2Cl)cc1 | – | human, plasma | oral, 15 mg, together with: sitagliptin 100 mg | 1 |
| COCCCCn1c(C(=O)N(CC(C)C)[C@@H]2CNC[C@H](C(=O)N3CCOCC3)C2)nc2ccccc21 | – | non-elderly human, plasma | oral, 80 mg once daily, day 7 | 2 |
| C#C[C@]1(O)CC[C@H]2[C@@H]3CCc4cc(O)ccc4[C@H]3CC[C@@]21C | – | human female | day 1, oral contraceptive alone, median | 3 |
| CN[C@@H]1COc2c(S(=O)(=O)NC(=O)Nc3c4c(cc5c3CCC5)CCC4)cnn2C1 | – | human | oral, 600 mg | 4 |
| O=c1[nH]c(=O)c(Cc2cccc(C(F)(F)F)c2)c([C@H]2CC[C@H](c3ccccc3)CC2)[nH]1 | – | human, plasma | oral, 900 mg, single dose SDD suspension, fed, median | 2 |
| O=C(Cc1cccc(OC(F)(F)F)c1)Nc1ccc(CCCCc2nnc(NC(=O)Cc3ccccn3)s2)nn1 | – | human patients, plasma | oral, 600 mg three times daily fasted, cycle 1 day 15 steady state | 1.03 |
| CCOc1c([C@H](C)n2nc(C)c3c(N)ncnc32)cc(Cl)c(F)c1[C@@H]1CNC(=O)C1 | – | human | oral, 10 mg, alone or with itraconazole | ≤ 1 |
| C=CC(=O)N1CCC([C@@H]2CCNc3c(C(N)=O)c(-c4ccc(Oc5ccccc5)cc4)nn32)CC1 | – | human | oral, 480 mg single dose, median | 2.8 |
| Cc1nc(Nc2ncc(C(=O)Nc3c(C)cccc3Cl)s2)cc(N2CCN(CCO)CC2)n1 | – | human, plasma | oral, 100 mg, median, range 1.0 to 16 h, together with: omeprazole | 1.9 |
| CCn1c(C(=O)c2cc(C)cc(C#N)c2)c(C(C)C)c(=O)[nH]c1=O | – | healthy humans, plasma | oral, 600 mg once daily, 7 days, median | 2 |
| C#C[C@]1(CO)O[C@@H](n2cnc3c(N)nc(F)nc32)C[C@@H]1O | – | human, plasma | oral, 100 mg once weekly, week 1 | 2 |
| Cc1ccsc1C(=O)Nc1cc(CN2CCN(C(=O)CO)CC2)ccc1/C=C/c1n[nH]c2ccccc12 | – | human patients, plasma | oral, 50 mg/day, day 28 | 1.5 ± 0.58 |
| O=C(O)CNC(=O)c1c(O)c2ccccc2n(OCC2CC2)c1=O | – | human | oral, 150 mg single dose, fasted | 2 |
| NC1(c2ccc(-c3nc4ccn5c(=O)[nH]nc5c4cc3-c3ccccc3)cc2)CCC1 | – | human | oral, 90 mg, expansion, reduced dose, together with: dinaciclib 9 mg/m^2 | 4.75 |
| CCCNS(=O)(=O)Nc1ncnc(OCCOc2ncc(Br)cn2)c1-c1ccc(Br)cc1 | – | healthy male humans, plasma | 0.2 to 600 mg, median, fasted, across dose groups | 8 to 30 |
| CCOc1ccc(Cc2cc([C@@H]3S[C@H](CO)[C@@H](O)[C@H](O)[C@H]3O)c(OC)cc2C)cc1 | – | human, plasma | oral, 5 mg/day, day 7, multiple dose before breakfast | 0.625 ± 0.231 |
| CN1C(=O)[C@@H](NC(=O)c2nnc(Cc3ccccc3)[nH]2)COc2ccccc21 | – | human male, plasma | oral, 60 mg twice daily, day 1 | 2 |
| O=C(NC[C@H](O)CO)c1ccncc1Nc1ccc(I)cc1F | – | human | oral, 45 mg, single dose with FOLFIRI | 2 |
| C#C[C@]1(CO)O[C@@H](n2cnc3c(N)nc(F)nc32)C[C@@H]1O | – | human, plasma | oral, 2.25 mg once daily, median, together with: doravirine 100 mg once daily | 0.5 |
| CON(C)C(=O)N1N=C(c2cc(F)ccc2F)S[C@@]1(CCCN)c1ccccc1 | – | human | intravenous, 1.5 mg/m^2, cycle 1 day 3, median | 1 |
| COc1ccc2nc([S@@+]([O-])Cc3ncc(C)c(OC)c3C)[nH]c2c1 | HPLC | human CYP2C19 rapid metabolizers, plasma | oral, 40 mg/day, day 1, pantoprazole | 2.25 ± 2.06 |

| Substance | test | system | setting | Tmax [h] |
| --- | --- | --- | --- | --- |
| CCCOc1ccc([C@H]2CNC(=O)N2c2ccc3[nH]cnc3c2)cc1 | – | human, elderly, fasted, plasma | oral, 800 mg twice daily, tablet, day 11, median | 1 |
| N#CCNC(=O)c1ccc(-c2ccnc(Nc3ccc(N4CCOCC4=O)cc3)n2)cc1 | – | human, plasma | oral, 100 mg momelotinib once daily, cycle 1 day 15, median, together with: trametinib 1.0 mg once daily | 1.9 |
| COc1ccnc(C[S+]([O-])c2nc3ccc(OC(F)F)cc3[nH]2)c1OC (stereo not shown) | HPLC | human CYP2C19 rapid metabolizers, plasma | oral, 40 mg/day, day 5, esomeprazole | 1.5 |
| Cc1[nH]c(/C=C2\C(=O)Nc3ccccc32)c(C)c1CCC(=O)O | – | human patients | oral, 400 mg/m^2 three times daily, after meal, dose 82 | 3.83 ± 1.44 |
| COc1cccc(-c2ccc(NC(=O)C3=C(C(=O)O)CCC3)c(F)c2)c1 | – | healthy male humans, plasma | oral, 30 mg once daily, day 13, median | 3 |
| COc1cc(Nc2ncc3c(n2)-c2ccc(Cl)cc2C(c2c(F)cccc2OC)=NC3)ccc1C(=O)O | – | human, phase I | oral, 40 mg twice daily, together with: combination with other drug | 1.5 ± 1 |
| CC(=O)c1c(C)c2cnc(Nc3ccc(N4CCNCC4)cn3)nc2n(C2CCCC2)c1=O | – | human | oral, 75 mg/m^2 repeated doses, day 21 | 4.9 ± 2 |
| O=C(CCCCCCC(=O)Nc1ccccc1)NO | – | human, cycle 1 day 2, plasma | oral, 400 mg, together with: bortezomib | 1 ± 0.9 |
| O=C(c1ccc(F)c(F)c1Nc1ccc(I)cc1F)N1CC(O)([C@@H]2CCCCN2)C1 | – | human, plasma | oral, 100 mg, steady state | 3 |
| CN1CCc2nc(C(=O)N[C@@H]3C[C@@H](C(=O)N(C)C)CC[C@@H]3NC(=O)C(=O)Nc3ccc(Cl)cn3)sc2C1 | – | human, plasma | fed, together with: dronedarone | 1.98 |
| Cc1ccc(NC(=O)c2ccc(CN3CCN(C)CC3)cc2)cc1Nc1nccc(-c2cncc(-c3oncc3C)c2)n1 | – | older healthy human adults, plasma | oral, 75.0 mg single dose, fed, mean | 5 |
| C[C@H]1C[C@@H]2[C@H]([C@@H](O)C[C@@]3(C)[C@H]2CC[C@]3(O)C(=O)CO)[C@@]2(C)C=CC(=O)C=C12 | item: free compound | human, plasma | oral, once daily, 32 mg, day 1, median | 2 |
| NC(=O)N1CCC(CC(=O)N2CCC([C@H]3c4ncc(Br)cc4CCc4cc(Cl)cc(Br)c43)CC2)CC1 | – | human, plasma | oral, 150 mg twice daily, cycle 1 day 15, multiple dose, median, together with: gemcitabine 750 mg/m2 | 5.5 |
| C=C(C)[C@@H]1CC[C@]2(NCCN3CCS(=O)(=O)CC3)CC[C@]3(C)[C@H](CC[C@@H]4[C@@]5(C)CC=C(C6=CC[C@@](CF)(C(=O)O)CC6)C(C)(C)[C@@H]5CC[C@]43C)[C@@H]12 | – | human, plasma | oral, dose not given | 3.5 to 4 |
| C=C(C)[C@@H]1CC[C@]2(NCCN3CCS(=O)(=O)CC3)CC[C@]3(C)[C@H](CC[C@@H]4[C@@]5(C)CC=C(C6=CC[C@@](CF)(C(=O)O)CC6)C(C)(C)[C@@H]5CC[C@]43C)[C@@H]12 | – | human, HIV-1 treatment-naive, plasma | oral, 10 to 200 mg single, day 1 | 2.93 to 5.53 |
| N[C@]1(C(=O)O)[C@H]2[C@@H](C[C@@H]1F)[C@@H]2C(=O)O | – | human, both sexes, fed, plasma | oral, 60 mg, day 14, multiple ascending dose | 3 |
| Oc1ncnc2[nH]ncc12 | – | human male, plasma | oral, 300 mg ALLO once daily, steady state fed | 1.5 |
| CNc1nc(Nc2ccc(-n3cnc(C)n3)c(OC)c2)nc2c1CC[C@H]2c1ccc(F)cc1 | – | human | oral, 50 mg once daily, day 28, multiple ascending dose, median | 5 |
| COC(=O)c1ccc2c(c1)NC(=O)/C2=C(\Nc1ccc(N(C)C(=O)CN2CCN(C)CC2)cc1)c1ccccc1 | – | human, moderate liver impairment, plasma | oral, 200 mg twice daily, steady state | 4 |
| Cc1ccc(NC(=O)c2ccc(CN3CCNCC3)cc2)cc1Nc1nccc(-c2cccnc2)n1 | – | human patients, plasma | oral, 400 mg/day of imatinib, day 10 of cycle 1 | 2.2 |
| Nc1ncc(-c2cnn(CCO)c2)c2scc(-c3ccc(NC(=O)Nc4cccc(F)c4)cc3)c12 | – | human patients, plasma | oral, all doses pooled, first dose | 3.1 ± 0.9 |
| CC(C)NC[C@@H](C(=O)N1CCN(c2ncnc3c2[C@H](C)C[C@H]3O)CC1)c1ccc(Cl)cc1 | – | human, Healthy hepatic function (Child-Pugh), plasma | oral, 100 mg single dose, median | 1 |
| O=C(c1ccc(OCCN2CCCCC2)cc1)c1c(-c2ccc(O)cc2)sc2cc(O)ccc12 | – | healthy humans, plasma | oral, 60 mg, together with: acute green tea | 1.5 |
| O=C([O-])CCCCCCCNC(=O)c1ccccc1O.[Na+] | – | human, normal hepatic function, plasma | oral, day 10, median | 0.49 |
